Assay results of several laboratories.
Values joined by “and” are separate records of one study, mostly repeats; a detail may differ. Numbers after ± are the reported error.
BCHE: Cholinesterase (BCHE, Homo sapiens, UniProt P06276)
Chain of UniProt P06276 (whole entry, looked up): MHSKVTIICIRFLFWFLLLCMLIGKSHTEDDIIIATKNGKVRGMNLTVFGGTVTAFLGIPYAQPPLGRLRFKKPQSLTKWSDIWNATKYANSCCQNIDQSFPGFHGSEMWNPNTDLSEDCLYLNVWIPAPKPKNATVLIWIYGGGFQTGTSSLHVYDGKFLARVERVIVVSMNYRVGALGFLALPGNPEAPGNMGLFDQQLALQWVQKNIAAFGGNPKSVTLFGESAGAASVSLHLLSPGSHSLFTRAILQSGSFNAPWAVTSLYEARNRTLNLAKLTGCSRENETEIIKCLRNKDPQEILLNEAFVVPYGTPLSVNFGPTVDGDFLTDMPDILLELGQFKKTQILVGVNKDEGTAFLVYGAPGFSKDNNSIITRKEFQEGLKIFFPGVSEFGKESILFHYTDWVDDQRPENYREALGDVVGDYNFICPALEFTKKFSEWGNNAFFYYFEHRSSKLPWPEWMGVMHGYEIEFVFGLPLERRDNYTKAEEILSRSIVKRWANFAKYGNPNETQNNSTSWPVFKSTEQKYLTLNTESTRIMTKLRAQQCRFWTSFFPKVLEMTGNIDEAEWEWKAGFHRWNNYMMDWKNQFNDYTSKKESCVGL
Chain of UniProt O95347 (whole entry, looked up): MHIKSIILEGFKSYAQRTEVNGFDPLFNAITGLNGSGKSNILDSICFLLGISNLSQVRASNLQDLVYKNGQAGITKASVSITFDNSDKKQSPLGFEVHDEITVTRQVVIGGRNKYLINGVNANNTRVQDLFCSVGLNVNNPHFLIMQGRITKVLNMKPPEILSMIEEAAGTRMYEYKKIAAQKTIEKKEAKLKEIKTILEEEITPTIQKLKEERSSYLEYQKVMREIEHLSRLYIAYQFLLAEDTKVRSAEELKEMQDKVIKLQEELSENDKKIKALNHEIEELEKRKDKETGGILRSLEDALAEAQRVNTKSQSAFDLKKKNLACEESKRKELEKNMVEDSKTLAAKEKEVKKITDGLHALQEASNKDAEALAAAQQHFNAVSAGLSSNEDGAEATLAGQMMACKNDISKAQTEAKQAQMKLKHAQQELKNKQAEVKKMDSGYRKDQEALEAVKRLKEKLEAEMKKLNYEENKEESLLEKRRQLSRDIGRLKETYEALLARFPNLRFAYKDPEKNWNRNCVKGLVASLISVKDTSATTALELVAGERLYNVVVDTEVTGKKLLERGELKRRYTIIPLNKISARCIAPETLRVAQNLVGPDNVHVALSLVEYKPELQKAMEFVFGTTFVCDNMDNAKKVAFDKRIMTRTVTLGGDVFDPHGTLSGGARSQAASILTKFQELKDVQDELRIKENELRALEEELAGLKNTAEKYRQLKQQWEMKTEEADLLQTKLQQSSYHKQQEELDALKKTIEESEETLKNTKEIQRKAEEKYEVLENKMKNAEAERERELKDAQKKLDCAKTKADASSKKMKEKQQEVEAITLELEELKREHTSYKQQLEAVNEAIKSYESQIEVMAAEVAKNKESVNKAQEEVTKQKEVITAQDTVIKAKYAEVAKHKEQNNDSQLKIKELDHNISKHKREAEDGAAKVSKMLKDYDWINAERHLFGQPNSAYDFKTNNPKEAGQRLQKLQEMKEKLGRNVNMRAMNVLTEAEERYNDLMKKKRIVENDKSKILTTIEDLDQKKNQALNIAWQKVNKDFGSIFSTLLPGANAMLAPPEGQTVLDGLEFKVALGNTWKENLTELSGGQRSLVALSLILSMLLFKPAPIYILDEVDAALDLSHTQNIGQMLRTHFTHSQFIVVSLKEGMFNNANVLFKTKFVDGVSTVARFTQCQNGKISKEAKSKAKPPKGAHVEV

Structure (SMILES)	tested on	test	system	setting	scale	quantity	value
COc1ccc2c(c1)CN(C(=O)CCN1CCC(Cc3ccccc3)CC1)CCS2	BCHE	inhibitor		with Triton		IC50	7180 ± 2120 nM
O=S(=O)(c1cccc2c(Cl)cccc12)N1CCCNCC1	Plasmodium falciparum		W2			IC50	1260 nM
Cc1cc(Nc2ccc(Cl)c(Cl)c2)n2nc(C)nc2n1	Plasmodium falciparum	parasite growth				EC50	7420 ± 6800 nM
C[C@H]1CN(c2n[nH]c3nc(N[C@H]4CC[C@H](NS(=O)(=O)CCC(F)(F)F)CC4)ncc23)CCO1	Structural maintenance of chromosomes protein 2 (Homo sapiens, UniProt O95347)	biochemical				IC50	≥ 20000 nM
Nc1ccn(C[C@@H](CO)OCP(=O)(O)O)c(=O)n1	Fowlpox virus	viral infection	CEF	25 µM	relative to: untreated	infection	90.8% and 76% and 93.8%
O=C1C(O)=C([C@H]2CC[C@H](c3ccc(Cl)cc3)CC2)C(=O)c2ccccc21	Plasmodium falciparum	parasite growth	Dd2			EC50	0.284 ± 0.15 nM
O=C1NC(=O)C(C2C3=C(CCCC3=O)Oc3ccc([N+](=O)[O-])cc32)C(=O)N1 (stereo not shown)	mouse preadipocytes	qPCR, measured: aP2		IC20, 14 days, adipogenic induction	relative to: untreated cells	mRNA level	decreased
O=C(Nc1cccnn1)N1CCN([C@@H]2CCOc3cc(C(F)(F)F)ccc32)CC1	thyroid hormone receptor	binding		20 µM		inhibition	-10%
COc1cc(CCC[P+](c2ccccc2)(c2ccccc2)c2ccccc2)c(OC)c2c1OCO2.[I-]	SNB-75	SRB				GI50	-5.92 log M
CCCNC(=O)c1ccnc(-c2ccc(CNC3Cc4ccccc4C3)cc2)c1	Plasmodium falciparum	parasite growth, SYBR Green	3D7 wild type	72 h		EC50	1250 ± 190 nM
CCCC1O[C@@H]2C[C@H]3[C@@H]4CCC5=CC(=O)C=C[C@]5(C)[C@H]4[C@@H](O)C[C@]3(C)[C@]2(C(=O)CO)O1 (stereo partly shown)	Plasmodium falciparum		Dd2			IC50	10000 nM
CCNC(=O)c1ccc(-n2nc(C)cc2-c2ccccc2)cc1	Plasmodium falciparum	parasite growth, SYBR Green	3D7 wild type	72 h		EC50	1980 ± 710 nM
O=C(NC12CC3CC(CC(C3)C1)C2)c1cc(-c2ccc(Cl)cc2Cl)c[nH]1	Vero			48 h		IC50	> 64 µg/mL
C[C@@H](N[C@H]1CCCC[C@@H]1NC(=O)c1ccc(Cl)cc1)c1cccc2ccccc12	BCHE	inhibitor				IC50	6850 nM
C[C@H]1NC(=O)[C@H](Cc2c[nH]c3ccccc23)NC(=O)[C@@H](Cc2ccccc2)NC(=O)[C@@H](CCCN)NC(=O)[C@H]([C@@H](C)O)NC(=O)[C@@H](CCCN)NC(=O)[C@H](Cc2c[nH]c3ccccc23)NC(=O)[C@@H](C)NC1=O	Naegleria fowleri			trophozoites		IC50	> 16 µg/mL
CCNC(=O)N1CCN(CCCC(c2ccc(F)cc2)c2ccc(F)cc2)CC1	Plasmodium falciparum		GB4			IC50	1000 nM
CC(C)[C@@H]1NC(=O)[C@@H](CCCN)NC(=O)[C@H]([C@@H](C)O)NC(=O)[C@H](Cc2ccccc2)NC(=O)[C@@H](Cc2ccccc2)NC(=O)[C@H](Cc2ccccc2)NC(=O)[C@@H](CCCN)NC1=O	Naegleria fowleri			trophozoites		IC90	> 16 µg/mL
COCCn1c2nc(=O)n(-c3ccccc3)c(=O)c-2nc2ccccc21	Dengue virus 2	viral replication				EC50	530 nM
C=C1CC[C@@]2(O)[C@H]3Cc4ccc(O)c5c4[C@@]2(CCN3CC2CC2)[C@H]1O5	H+/organic cation antiporter	cell uptake	hCMEC/D3			Km	80.9 µM
O=C(N/N=C/c1ccc(Cl)cc1Cl)c1cnccn1	Gag-Pol polyprotein, integrase with LEDGF/p75 (gag-pol, Human immunodeficiency virus 1, UniProt P12497)	LEDGF/p75-integrase interaction, inhibitor, AlphaScreen				IC50	> 50000 nM

Structure (SMILES)	tested on	test	system	setting	scale	quantity	value
CCCn1c(O)nnc1SCC(=O)Nc1cc(C(F)(F)F)ccc1Cl	Plasmodium falciparum	parasite growth	Dd2			EC50	74.8 ± 22 nM
CC[C@H](C)[C@@H]1NC(=O)[C@@H]2CCCN2C(=O)[C@H](CC(C)C)NC(=O)[C@H](CC(C)C)NC(=O)CNC(=O)[C@@H](NC(=O)[C@@H](NC(=O)[C@H](CC(=O)O)NC(=O)CNC(=O)[C@@H](NC(=O)[C@H](C)NC(=O)CNC(=O)[C@H](CCCCN)NC(=O)[C@H](CC(C)C)NC(=O)[C@H](CC(C)C)NC(=O)[C@H](CCCCN)NC(=O)CNC(=O)[C@@H](NC(=O)[C@@H](N)CC(C)C)C(C)C)C(C)C)C(C)C)CSSC[C@@H](C(=O)O)NC1=O		RNA-seq, measured: Gipc3	mouse, traumatic brain injury model, frontal cortex and hippocampus	dose not given	relative to: TBI alone	log2 fold change	-1.26
Cn1nc(C(=O)N2CCC(c3[nH]ncc3Cc3ccccc3)CC2)c2ccccc2c1=O	Plasmodium falciparum	parasite growth, SYBR Green	3D7 DHODH E182D	72 h		EC50	523 ± 73 nM
C[C@H](C(=O)N[C@H]1COc2ccccc2[C@@H]1S(C)(=O)=O)c1ccc(F)cc1	GABAB receptor, rat	binding		10 µM, Eurofins selectivity panel		inhibition	-4%
O=C(CCCN1CC=C(n2c(=O)[nH]c3ccccc32)CC1)c1ccc(F)cc1	Plasmodium falciparum		W2			IC50	3160 nM
COc1c(CCC[P+](c2ccccc2)(c2ccccc2)c2ccccc2)cc2c(c1OC)OCO2.[I-]	IGROV-1	SRB				TGI	-4.97 log M
C[C@@H](O)[C@@H]1NC(=O)[C@H](Cc2ccccc2)NC(=O)[C@@H](Cc2ccccc2)NC(=O)[C@H]([C@@H](C)O)NC(=O)[C@@H](CCCN)NC(=O)[C@H](CCCN)NC(=O)[C@@H](CCCCN)NC1=O	Acanthamoeba castellanii			trophozoites		IC90	> 16 µg/mL
COc1ncccc1-c1c[nH]c(C(=O)NC2C3CC4CC(C3)CC2C4)c1 (stereo not shown)	Vero			48 h		IC50	11.8 µg/mL
Cc1ccccc1NC(=O)Nc1ccc(CC(=O)N[C@@H](CCCCNC(=O)/C=C/c2cccnc2)C(=O)N[C@@H](CCCC(=O)O)C(=O)NC2(C(=O)NCCOCCOCCOCCOCC(=O)N[C@@H](CCCCNC(=S)Nc3ccc(C[C@H]4CN(CC(=O)O)CCN(CC(=O)O)CCN4CC(=O)O)cc3)C(N)=O)CCCCC2)cc1 [gallium-68 labelled]		shake flask	octanol/PBS	pH 7.4		log D	-2.18 ± 0.03
CNCCC=C1c2ccccc2CCc2ccccc21	Plasmodium falciparum		D10			IC50	12600 nM
Nc1ncnc2c1ncn2[C@@H]1O[C@@H]2COP(=O)(O)O[C@H]3[C@@H](O)[C@H](n4cnc5c(=O)[nH]cnc54)O[C@@H]3COP(=O)(O)O[C@H]2[C@H]1O	HFF-1	RNA sequencing Reactome analysis, measured: Reactome R-HSA-5693538 homology directed repair		together with: West Nile virus infection	relative to: West Nile virus infected cells, upregulated pathway	pathway fold enrichment	3.84
COc1c(C)c2c(c(O)c1C/C=C(\C)CCC(=O)O)C(=O)OC2	muscle cancer cell lines	cell proliferation		average over lines		IC50	1550 nM
CC1=C(C(=O)O)N2C(=O)[C@@H](NC(=O)[C@H](N)c3ccccc3)[C@H]2SC1	PBP1b Streptococcus pneumoniae	Bocillin-FL competition	live Streptococcus pneumoniae cells	30 min, together with: Bocillin-FL 600 nM		kinact/KI	220 ± 83 M⁻¹ s⁻¹
C[C@@H](O)[C@@H]1NC(=O)[C@H](Cc2ccccc2)NC(=O)[C@@H](Cc2ccccc2)NC(=O)[C@H](Cc2ccccc2)NC(=O)[C@@H](CCCN)NC(=O)[C@H](CCCCN)NC(=O)[C@@H](CCCCN)NC1=O	Naegleria fowleri			trophozoites		IC90	> 16 µg/mL
CC(C)(C)c1cc(C=C(C#N)C#N)cc(C(C)(C)C)c1O	Plasmodium falciparum		HB3			IC50	1000 nM
CC(C)C[C@H](NC(=O)C[C@H](O)[C@H](CC(C)C)NC(=O)[C@H](Cc1c[nH]cn1)NC(=O)CNC(=O)[C@@H](NC(=O)[C@H](C)NC(=O)[C@H](Cc1c[nH]c2ccccc12)NC(=O)[C@H](CCC(N)=O)NC(=O)[C@@H](Cc1ccccc1)NC(=O)CCNC(=O)CCSc1nnc(NCCC(=O)NCCC(=O)NCCCC[C@H](NC(=O)N[C@@H](CCC(=O)O)C(=O)O)C(=O)O)c2c1CCC1C(CC2)C1COC(=O)NCCNC(=O)CC[C@H](C(=O)O)N1CCN(CC(=O)O)CCN(CC(=O)O)CC1)C(C)C)C(N)=O (stereo partly shown) [gallium-68 labelled]			athymic NMRI nude mouse, kidneys	intravenous, dose not given, 2 h, together with: bombesin 480 nmol (GRPR blocking)		tissue uptake	21.3 %ID/g
CC1(C(=O)O)C2CCC(O2)C1(C)C(=O)O (stereo not shown)	Plasmodium falciparum		D10			IC50	2000 nM
C#CCN(C)[C@H](C)Cc1ccccc1		footprint test	MPTP-induced Parkinson's disease mouse model	10 mg/kg, trial 1		corridor crossing time	6.87 s and 5.41 s and 3.47 s and 8.21 s and 5.71 s and 7.14 s and 4.28 s
CN(C)CCCC1(c2ccc(F)cc2)OCc2cc(C#N)ccc21 (stereo not shown)	Plasmodium falciparum		W2			IC50	2000 nM
Cc1cc(Nc2ccc(C)c(Cl)c2)n2nc(C(F)(F)F)nc2n1	Plasmodium falciparum	parasite growth, SYBR Green	3D7 DHODH E182D	72 h		EC50	582 ± 110 nM
